Assay results pooled from the literature.
Compare with care: the assays were run in different laboratories.
Cell line: MRC5

| Structure (SMILES) | assay | setting | measurement | result |
| --- | --- | --- | --- | --- |
| N#C/C(=C\c1cn(-c2ccccc2)nc1-c1ccc(Cl)cc1)c1nc2ccccc2[nH]1 | cell growth or viability, ATP luminescence | 72 h | IC50 | > 100 µM |
| Cc1nn(-c2ccccc2)nc1CNS(=O)(=O)c1cccs1 | cell growth or viability | – | EC50 | > 50 µM |
| O=C1C=C(O)C(=O)c2ccccc21 | cytotoxicity, MTT | 48 h | IC50 | 5 to 118 µM |
| N#Cc1ccc2cccc(O)c2n1 | MTT | concentration not given | cytotoxicity | not toxic |
| N#C/C(=C\c1cn(-c2ccccc2)nc1-c1cccc(Cl)c1)c1nc2ccccc2[nH]1 | cell growth or viability, ATP luminescence | 72 h | IC50 | > 100 µM |
| COc1ccc([C@@H]2CC(=O)c3c(O)cc(O[C@@H]4O[C@H](CO[C@@H]5O[C@@H](C)[C@H](O)[C@@H](O)[C@H]5O)[C@@H](O)[C@H](O)[C@H]4O)cc3O2)cc1O | cell growth or viability, MTS | 150 µg/mL, 48 h | viability | 43.4% |
| O=C1C(Cl)=C(Cl)C(=O)c2c1cccc2[N+](=O)[O-] | cytotoxicity, MTT | 48 h | IC50 | 5 to 118 µM |
| O=S(=O)(NCc1csc(-c2ccccc2)n1)c1ccc2ccccc2c1 | cell growth or viability | – | EC50 | > 50 µM |
| N#C/C(=C\c1cn(-c2ccccc2)nc1-c1cccc(Br)c1)c1nc2ccccc2[nH]1 | cell growth or viability, ATP luminescence | 72 h | IC50 | > 100 µM |
| Oc1c(Br)ccc2cccnc12 | cell growth or viability, MTT | 48 h | IC50 | 22.1 µM |

A few entries again:
| Structure (SMILES) | assay | setting | measurement | result |
| --- | --- | --- | --- | --- |
| O=C1C=C(O)C(=O)c2ccccc21 | cytotoxicity, MTT | 48 h | IC50 | 5 to 118 µM |
| N#Cc1ccc2cccc(O)c2n1 | MTT | concentration not given | cytotoxicity | not toxic |
